Measured values pooled from the literature.
Numbered parts are unrelated; each lists some results of a single study.
Sequence of UniProt P07949 (whole entry, unmodified, looked up): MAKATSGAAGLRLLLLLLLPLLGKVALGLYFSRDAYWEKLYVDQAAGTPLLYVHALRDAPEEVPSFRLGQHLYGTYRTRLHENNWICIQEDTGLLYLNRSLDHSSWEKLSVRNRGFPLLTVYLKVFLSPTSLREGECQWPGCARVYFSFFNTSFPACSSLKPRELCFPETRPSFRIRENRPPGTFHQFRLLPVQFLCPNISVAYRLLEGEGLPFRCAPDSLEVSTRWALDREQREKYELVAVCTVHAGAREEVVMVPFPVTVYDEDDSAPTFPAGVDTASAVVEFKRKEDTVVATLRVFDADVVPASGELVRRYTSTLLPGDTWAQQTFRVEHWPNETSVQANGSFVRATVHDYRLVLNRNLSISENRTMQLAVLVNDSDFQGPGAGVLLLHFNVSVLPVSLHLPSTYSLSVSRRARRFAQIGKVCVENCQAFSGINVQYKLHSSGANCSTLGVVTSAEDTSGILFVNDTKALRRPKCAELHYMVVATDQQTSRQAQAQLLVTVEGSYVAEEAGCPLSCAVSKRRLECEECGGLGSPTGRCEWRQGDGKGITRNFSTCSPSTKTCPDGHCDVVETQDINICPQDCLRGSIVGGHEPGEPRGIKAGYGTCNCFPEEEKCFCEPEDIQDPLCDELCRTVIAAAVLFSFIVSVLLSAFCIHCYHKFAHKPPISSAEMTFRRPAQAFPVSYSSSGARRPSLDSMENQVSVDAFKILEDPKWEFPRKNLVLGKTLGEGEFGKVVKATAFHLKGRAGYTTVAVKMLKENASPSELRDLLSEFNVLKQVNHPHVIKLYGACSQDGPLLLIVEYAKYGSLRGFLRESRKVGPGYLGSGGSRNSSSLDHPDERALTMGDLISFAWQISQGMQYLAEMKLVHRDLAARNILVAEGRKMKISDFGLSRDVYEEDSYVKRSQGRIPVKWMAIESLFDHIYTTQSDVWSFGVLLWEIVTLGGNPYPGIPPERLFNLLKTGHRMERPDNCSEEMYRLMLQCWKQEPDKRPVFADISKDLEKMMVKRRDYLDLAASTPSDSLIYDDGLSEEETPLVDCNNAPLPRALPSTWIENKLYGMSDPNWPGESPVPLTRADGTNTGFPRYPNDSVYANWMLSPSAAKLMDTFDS
Sequence of UniProt Q6PHR2 (whole entry, looked up): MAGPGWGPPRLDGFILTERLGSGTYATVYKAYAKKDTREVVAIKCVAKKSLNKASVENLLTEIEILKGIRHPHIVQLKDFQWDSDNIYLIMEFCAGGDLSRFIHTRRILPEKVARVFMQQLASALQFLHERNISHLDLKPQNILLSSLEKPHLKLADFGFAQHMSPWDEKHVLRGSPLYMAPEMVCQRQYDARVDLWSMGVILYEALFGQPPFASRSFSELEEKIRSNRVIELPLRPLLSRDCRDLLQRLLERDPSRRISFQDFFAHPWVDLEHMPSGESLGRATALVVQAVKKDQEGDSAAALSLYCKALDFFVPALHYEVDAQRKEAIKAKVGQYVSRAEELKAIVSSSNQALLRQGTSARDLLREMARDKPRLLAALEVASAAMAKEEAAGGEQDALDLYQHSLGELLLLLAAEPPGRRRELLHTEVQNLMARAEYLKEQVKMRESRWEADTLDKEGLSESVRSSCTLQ
Sequence of UniProt Q9Y243 (whole entry, looked up): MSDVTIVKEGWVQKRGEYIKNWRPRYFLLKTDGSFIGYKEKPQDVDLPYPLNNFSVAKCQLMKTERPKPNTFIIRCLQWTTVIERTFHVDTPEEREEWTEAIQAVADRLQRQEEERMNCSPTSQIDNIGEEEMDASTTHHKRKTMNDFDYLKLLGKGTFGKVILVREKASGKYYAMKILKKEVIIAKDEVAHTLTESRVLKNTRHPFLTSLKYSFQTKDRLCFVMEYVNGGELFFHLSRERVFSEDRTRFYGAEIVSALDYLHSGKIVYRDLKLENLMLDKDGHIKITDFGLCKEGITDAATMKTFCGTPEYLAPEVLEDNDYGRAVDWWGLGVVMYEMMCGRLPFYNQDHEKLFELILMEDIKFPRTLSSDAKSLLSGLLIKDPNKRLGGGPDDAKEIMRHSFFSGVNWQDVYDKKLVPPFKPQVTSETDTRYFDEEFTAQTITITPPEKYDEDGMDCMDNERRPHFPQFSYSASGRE
Sequence of UniProt Q04912 (whole entry, looked up): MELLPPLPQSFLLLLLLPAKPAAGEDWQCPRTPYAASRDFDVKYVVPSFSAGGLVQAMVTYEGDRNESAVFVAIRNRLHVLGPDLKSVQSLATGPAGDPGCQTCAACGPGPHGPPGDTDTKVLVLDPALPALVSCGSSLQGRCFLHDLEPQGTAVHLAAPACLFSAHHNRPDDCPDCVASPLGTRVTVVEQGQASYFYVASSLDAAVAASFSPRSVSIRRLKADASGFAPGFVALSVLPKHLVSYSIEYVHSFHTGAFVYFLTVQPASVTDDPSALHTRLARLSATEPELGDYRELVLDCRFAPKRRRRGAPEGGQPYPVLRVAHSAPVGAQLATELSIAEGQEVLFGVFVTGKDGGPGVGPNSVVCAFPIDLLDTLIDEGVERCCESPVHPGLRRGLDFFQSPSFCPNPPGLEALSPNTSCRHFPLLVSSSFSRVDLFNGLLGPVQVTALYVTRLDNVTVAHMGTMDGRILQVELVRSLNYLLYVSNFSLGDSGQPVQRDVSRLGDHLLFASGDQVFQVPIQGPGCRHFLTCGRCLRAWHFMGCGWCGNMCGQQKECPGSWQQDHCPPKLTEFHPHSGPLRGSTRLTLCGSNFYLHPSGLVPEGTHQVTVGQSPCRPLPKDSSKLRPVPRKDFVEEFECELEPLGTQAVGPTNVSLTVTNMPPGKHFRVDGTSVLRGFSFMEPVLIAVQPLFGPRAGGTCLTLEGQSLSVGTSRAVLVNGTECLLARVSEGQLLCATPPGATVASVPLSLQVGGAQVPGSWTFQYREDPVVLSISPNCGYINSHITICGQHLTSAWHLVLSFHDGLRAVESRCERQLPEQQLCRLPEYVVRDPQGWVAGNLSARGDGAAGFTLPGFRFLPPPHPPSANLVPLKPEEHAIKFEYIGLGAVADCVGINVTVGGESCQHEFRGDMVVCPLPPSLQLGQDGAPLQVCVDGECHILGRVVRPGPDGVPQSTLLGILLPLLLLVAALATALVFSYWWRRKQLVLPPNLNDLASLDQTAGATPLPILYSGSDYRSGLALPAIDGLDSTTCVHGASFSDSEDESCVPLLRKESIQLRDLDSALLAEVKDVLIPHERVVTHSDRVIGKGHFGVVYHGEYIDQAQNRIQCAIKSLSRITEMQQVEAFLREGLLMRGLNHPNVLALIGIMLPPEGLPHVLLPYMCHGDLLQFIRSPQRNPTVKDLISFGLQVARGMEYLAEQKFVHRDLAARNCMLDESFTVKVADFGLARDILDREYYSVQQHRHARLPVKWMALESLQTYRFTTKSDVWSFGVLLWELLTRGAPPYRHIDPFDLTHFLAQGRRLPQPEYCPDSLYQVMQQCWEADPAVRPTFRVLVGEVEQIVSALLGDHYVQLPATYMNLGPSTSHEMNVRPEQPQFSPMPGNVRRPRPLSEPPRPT
Sequence of UniProt O96013 (whole entry, looked up): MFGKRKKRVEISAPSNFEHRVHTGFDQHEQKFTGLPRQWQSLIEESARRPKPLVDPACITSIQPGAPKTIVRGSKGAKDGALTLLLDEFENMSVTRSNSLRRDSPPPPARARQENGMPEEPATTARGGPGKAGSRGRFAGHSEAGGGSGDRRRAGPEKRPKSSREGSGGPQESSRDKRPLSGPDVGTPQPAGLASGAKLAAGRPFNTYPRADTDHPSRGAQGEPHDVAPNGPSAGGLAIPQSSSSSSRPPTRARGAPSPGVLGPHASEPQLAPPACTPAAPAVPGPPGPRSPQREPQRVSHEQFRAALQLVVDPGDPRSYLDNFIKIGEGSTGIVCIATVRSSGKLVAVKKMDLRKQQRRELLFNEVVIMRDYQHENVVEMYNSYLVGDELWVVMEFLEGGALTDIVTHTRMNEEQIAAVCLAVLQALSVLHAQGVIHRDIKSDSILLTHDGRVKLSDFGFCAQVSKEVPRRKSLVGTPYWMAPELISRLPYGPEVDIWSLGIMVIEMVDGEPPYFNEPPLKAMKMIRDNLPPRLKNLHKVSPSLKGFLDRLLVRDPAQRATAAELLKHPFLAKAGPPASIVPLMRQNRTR
Sequence of UniProt Q9H093 (whole entry, looked up): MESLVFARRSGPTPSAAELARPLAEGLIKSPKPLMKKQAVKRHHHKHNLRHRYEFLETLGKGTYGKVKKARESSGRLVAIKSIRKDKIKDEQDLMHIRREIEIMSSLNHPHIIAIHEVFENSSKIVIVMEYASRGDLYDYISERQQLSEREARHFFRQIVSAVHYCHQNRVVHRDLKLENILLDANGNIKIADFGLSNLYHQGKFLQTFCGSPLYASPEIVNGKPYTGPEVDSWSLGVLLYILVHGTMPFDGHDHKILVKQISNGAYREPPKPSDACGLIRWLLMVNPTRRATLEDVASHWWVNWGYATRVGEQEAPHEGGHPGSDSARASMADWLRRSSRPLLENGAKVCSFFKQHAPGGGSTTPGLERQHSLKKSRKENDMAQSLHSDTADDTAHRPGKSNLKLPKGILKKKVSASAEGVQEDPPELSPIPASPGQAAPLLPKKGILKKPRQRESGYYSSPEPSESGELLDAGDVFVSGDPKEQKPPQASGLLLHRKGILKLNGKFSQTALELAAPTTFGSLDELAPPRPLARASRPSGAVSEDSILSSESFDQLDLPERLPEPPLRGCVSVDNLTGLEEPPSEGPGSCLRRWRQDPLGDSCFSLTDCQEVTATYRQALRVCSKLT

Series 1 — method: RNA Bind-n-Seq; form: RNA; matrix: in vitro; concentration: not given; reference: input RNA pool; reading: higher = stronger binding; endpoint: bound/input enrichment
Target: RING finger protein unkempt homolog, zinc fingers 1-6, GST-SBP tag (UNK, Homo sapiens, UniProt Q9C0B0, residues 30-357)
Sequence of UniProt Q9C0B0 (30-357, looked up): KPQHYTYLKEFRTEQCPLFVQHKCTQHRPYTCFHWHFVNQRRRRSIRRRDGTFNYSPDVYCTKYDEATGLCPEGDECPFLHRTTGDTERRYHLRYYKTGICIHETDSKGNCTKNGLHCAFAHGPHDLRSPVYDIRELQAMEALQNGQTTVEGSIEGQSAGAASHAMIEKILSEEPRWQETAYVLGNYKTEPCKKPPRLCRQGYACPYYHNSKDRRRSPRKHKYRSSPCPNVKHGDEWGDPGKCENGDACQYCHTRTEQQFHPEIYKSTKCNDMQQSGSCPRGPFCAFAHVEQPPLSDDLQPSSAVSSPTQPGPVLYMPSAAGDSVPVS
Notes: RNA with constant flanks, human and mouse sites, ends assumed
Shared flanks, not repeated: GGGAGUUCUACAGUCCGACGAUC … CAACAGAGGAUUGAGCAUCA
GGGGACAGUGUUGGGAUUGUCAAGGAAAAAGGGGUAGGAAGGAAGGUGGAGGGAUUGAUCUAGUACCAGGGAGAAUAUUCCACUGAACUGUGAUUCUAUGGCUUGGGGCGGAGGGUGGGG: 0.52 ratio
AAAGUCACCUCUCCUGUGUUGGUCAUUCACGGUACCGAGGAUGAGGUCAUCGAUUUCUCCCAUGGCUUGGCGAUGUAUGAGCGCUGUCCCCGUGCUGUGGAGCCCCUGUGGGUUGAGGGG: 0.282 ratio
GAUAUUUGCAAUUAGUUGUCUUAACUAAUGGUUUUUUUCACUUGCAGGAUUAUUUCCUAUUUAGAGAUGGUGACAUUCUUGGAAAGUACGUAGACUGAAAUAAGUCACUAUUGAAAUGGC: 0.487 ratio
GAUGAAGUGGAGAAAUACAAUCGGAAUGGAGUCAAUGCCCUGCAACUGGACCCAGCACUCAACAGACUCUUCACAGCAGGUCGAGACUCCAUCAUAAGAAUAUGGAGUGUCAAUCAGCAC: 0.117 ratio
UGAAAAUGCUUUCGAGAGACUACUGGACAUUAUUUCAGAGGAGGGGAACAGUGAUGGAGGUAUAGUAGUUGAAGAUUGUUUGAUUUUGCUCCAAAACUUAUUAAAAAACAACAACUCCAA: 0.658 ratio
CGUGAGAAGAUAGAGGCAGAACUGCAGGACAUCUGCAAUGAUGUUCUGGAGCUGUUGGACAAAUAUCUUAUUCCCAAUGCUACACAACCAGAAAGUAAGGUGUUCUACUUGAAAAUGAAA: 0.144 ratio
CUGGACAACAGGGAGAAAGGAGAGAAACUGAAGAAAGAAGACGGUAGACCAGCAUUGCAGCACUUACAGUCACUAAUUCCCUUAAGGUUGAGACUAUAGUGACAGGAAAGGGUCAAUGAC: 0.27 ratio
CUGAGCUAAAGGAGUUAGCAUCUUUAUUUUUGUAUCAAAAAUAAAGGUUAUUUUGAAAUUAUUAGGAUUUUUACACAAUUCUGAAAUCUGUUGCUUUUGUAAACAAAUUGUUUGAUCUUA: 35.6 ratio

Series 2 — species: human; matrix: microsomes or S9; concentration: 2 µM; time: 0.5 h; endpoint: remaining compound
CCCSc1nc(OC)c(-c2ccccc2C)c(=O)n1C: 17.3%
CC(C)c1csc2nc(-c3cn(C)c(=O)[nH]c3=O)[nH]c(=O)c12: 34.2%
NC1CCN(c2nc3c(cc2F)c(=O)c(C(=O)O)cn3-c2ccc(F)cn2)C1 (stereo not drawn): 88.5%

Series 3 — organism: Plasmodium berghei; action: inhibitor; cells: Huh-7; strain: liver stage; concentration: 10 µM; time: 24 h; reference: untreated control; endpoint: infection rate
CCn1cc(C(=O)O)c(=O)c2ccc(C)nc21: 90.1%
NS(=O)(=O)c1cc2c(cc1C(F)(F)F)NCNS2(=O)=O: 106%
Cc1ccsc1/C=C/C1=NCCCN1C: 74.6%

Series 4 — observed: cell-free assay; method: competition with immobilised ligand; concentration: 1 µM; endpoint: remaining binding
Compound: N#CC1(c2ccccn2)CCN(Cc2cc(C(=O)N3CCCC3)c(=O)n3ccccc23)CC1
RAC-gamma serine/threonine-protein kinase (AKT3, Homo sapiens, UniProt Q9Y243): 74%
Serine/threonine-protein kinase TAO2 (TAOK2, Homo sapiens, UniProt Q9UL54): 100%
Phosphatidylinositol 4,5-bisphosphate 3-kinase catalytic subunit alpha isoform (PIK3CA, Homo sapiens, UniProt P42336): 80%
Serine/threonine-protein kinase PAK 4 (PAK4, Homo sapiens, UniProt O96013): 100%
Serine/threonine-protein kinase ULK3 (ULK3, Homo sapiens, UniProt Q6PHR2): 96%
Epidermal growth factor receptor (EGFR, Homo sapiens, UniProt P00533): 100%
Serine/threonine-protein kinase TBK1 (TBK1, Homo sapiens, UniProt Q9UHD2): 99%
Mitogen-activated protein kinase kinase kinase kinase 4 (MAP4K4, Homo sapiens, UniProt O95819): 87%
Tyrosine-protein kinase JAK2, JH1 (JAK2, Homo sapiens, UniProt O60674): 85%
Macrophage-stimulating protein receptor (MST1R, Homo sapiens, UniProt Q04912): 100%
Proto-oncogene tyrosine-protein kinase receptor Ret (RET, Homo sapiens, UniProt P07949, V804L): 92%
Testis-specific serine/threonine-protein kinase 1 (TSSK1B, Homo sapiens, UniProt Q9BXA7): 98%
NUAK family SNF1-like kinase 2 (NUAK2, Homo sapiens, UniProt Q9H093): 100%

For quick reference, copied from above (series 2):
CCCSc1nc(OC)c(-c2ccccc2C)c(=O)n1C: 17.3%
CC(C)c1csc2nc(-c3cn(C)c(=O)[nH]c3=O)[nH]c(=O)c12: 34.2%
NC1CCN(c2nc3c(cc2F)c(=O)c(C(=O)O)cn3-c2ccc(F)cn2)C1 (stereo not drawn): 88.5%
